Experimental data pooled from the literature.
Every numbered part comes from another study and shows a few of its results, in no order. Positions count from the first letter of the parent shown.
Sequence of UniProt P42336 (whole entry, unmodified, looked up): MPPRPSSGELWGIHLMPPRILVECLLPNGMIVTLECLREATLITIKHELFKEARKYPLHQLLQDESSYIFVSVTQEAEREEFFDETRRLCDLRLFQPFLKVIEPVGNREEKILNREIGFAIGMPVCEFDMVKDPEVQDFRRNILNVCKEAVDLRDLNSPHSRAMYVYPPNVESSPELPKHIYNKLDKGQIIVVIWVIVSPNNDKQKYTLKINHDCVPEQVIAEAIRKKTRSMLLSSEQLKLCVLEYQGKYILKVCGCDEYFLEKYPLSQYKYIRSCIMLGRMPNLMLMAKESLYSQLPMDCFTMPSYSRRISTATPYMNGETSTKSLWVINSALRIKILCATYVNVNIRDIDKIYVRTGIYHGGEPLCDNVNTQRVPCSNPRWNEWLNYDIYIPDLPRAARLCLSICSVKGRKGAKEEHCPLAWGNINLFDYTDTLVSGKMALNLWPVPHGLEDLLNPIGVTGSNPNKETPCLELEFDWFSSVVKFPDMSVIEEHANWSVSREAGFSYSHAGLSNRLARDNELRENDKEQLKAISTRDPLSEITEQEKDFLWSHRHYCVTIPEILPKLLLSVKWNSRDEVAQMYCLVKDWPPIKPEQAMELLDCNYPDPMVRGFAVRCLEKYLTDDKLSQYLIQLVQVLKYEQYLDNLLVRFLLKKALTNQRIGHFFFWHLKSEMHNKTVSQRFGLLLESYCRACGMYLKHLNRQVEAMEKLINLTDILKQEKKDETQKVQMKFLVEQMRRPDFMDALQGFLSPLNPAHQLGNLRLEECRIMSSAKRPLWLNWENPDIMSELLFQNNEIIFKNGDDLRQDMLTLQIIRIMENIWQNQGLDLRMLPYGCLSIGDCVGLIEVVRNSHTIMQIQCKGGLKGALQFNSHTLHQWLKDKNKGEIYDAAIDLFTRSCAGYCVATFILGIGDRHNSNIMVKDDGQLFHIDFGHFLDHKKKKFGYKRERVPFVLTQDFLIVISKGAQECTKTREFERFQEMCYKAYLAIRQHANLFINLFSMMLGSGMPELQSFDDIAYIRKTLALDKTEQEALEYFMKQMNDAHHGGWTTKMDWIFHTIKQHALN
Sequence of UniProt P10721 (whole entry, unmodified, looked up): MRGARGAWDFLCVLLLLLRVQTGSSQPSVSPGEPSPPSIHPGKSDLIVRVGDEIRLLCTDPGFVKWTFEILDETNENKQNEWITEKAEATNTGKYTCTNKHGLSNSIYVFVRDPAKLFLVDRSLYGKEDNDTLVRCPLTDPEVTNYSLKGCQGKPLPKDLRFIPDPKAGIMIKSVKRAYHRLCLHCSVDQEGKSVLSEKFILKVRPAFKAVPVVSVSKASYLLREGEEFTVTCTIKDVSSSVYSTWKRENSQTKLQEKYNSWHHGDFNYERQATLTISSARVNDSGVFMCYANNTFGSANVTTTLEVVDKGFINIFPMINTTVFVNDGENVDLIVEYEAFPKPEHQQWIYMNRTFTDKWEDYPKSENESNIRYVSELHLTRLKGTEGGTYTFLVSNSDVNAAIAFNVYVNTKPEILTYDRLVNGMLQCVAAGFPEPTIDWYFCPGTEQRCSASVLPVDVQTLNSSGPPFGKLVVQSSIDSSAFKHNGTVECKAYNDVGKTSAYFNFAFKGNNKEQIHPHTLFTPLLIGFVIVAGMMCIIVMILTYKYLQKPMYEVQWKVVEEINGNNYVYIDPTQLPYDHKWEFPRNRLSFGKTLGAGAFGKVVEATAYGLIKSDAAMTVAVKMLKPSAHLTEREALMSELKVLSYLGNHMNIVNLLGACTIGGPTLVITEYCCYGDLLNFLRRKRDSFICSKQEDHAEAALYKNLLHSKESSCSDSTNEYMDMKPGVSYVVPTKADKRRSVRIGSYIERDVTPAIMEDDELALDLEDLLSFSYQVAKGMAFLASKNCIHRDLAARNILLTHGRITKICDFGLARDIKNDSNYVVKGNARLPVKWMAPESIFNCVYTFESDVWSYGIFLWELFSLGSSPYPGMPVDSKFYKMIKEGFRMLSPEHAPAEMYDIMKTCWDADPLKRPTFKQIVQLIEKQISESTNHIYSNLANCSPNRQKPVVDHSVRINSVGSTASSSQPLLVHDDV
Sequence of UniProt Q86UE8 (whole entry, looked up): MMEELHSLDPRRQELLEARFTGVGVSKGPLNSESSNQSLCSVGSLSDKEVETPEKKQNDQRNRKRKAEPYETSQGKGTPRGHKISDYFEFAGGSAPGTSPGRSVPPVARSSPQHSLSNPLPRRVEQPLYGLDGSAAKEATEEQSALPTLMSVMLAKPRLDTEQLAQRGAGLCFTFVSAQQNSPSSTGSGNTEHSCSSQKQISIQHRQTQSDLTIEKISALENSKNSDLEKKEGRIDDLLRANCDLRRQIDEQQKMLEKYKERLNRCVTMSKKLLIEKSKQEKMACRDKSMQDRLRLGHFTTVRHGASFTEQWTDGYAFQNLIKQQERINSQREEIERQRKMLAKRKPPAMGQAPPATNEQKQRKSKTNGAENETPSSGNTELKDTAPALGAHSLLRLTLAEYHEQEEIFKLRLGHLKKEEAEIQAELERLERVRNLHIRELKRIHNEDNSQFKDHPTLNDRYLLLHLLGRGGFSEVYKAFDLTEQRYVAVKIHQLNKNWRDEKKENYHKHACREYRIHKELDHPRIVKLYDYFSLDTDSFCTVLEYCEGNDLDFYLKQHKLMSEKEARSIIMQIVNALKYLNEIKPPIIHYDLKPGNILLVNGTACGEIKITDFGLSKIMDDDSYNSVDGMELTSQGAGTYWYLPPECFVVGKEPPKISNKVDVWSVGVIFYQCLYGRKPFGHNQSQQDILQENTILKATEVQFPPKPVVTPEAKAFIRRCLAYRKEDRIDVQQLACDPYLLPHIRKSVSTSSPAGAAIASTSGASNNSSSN
Sequence of UniProt Q15418 (whole entry, looked up): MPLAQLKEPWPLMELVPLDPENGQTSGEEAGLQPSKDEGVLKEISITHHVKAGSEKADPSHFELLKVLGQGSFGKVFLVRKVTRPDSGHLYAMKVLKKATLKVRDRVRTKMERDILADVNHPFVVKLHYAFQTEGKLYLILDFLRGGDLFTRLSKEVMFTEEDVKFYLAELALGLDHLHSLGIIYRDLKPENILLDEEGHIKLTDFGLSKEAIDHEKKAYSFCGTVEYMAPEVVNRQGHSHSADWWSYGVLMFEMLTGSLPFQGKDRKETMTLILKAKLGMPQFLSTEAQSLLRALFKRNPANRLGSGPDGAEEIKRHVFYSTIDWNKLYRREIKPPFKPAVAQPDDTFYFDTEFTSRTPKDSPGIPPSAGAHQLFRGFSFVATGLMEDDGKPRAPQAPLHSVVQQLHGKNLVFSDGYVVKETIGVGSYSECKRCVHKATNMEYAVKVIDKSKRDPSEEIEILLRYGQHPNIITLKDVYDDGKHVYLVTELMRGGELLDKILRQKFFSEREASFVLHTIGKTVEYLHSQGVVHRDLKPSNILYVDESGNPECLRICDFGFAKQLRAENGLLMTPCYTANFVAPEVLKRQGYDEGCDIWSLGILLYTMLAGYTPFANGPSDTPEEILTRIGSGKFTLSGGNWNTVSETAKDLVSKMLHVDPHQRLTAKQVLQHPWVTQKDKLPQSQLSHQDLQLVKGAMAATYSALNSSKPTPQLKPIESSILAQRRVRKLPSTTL
Sequence of UniProt Q92630 (whole entry, looked up): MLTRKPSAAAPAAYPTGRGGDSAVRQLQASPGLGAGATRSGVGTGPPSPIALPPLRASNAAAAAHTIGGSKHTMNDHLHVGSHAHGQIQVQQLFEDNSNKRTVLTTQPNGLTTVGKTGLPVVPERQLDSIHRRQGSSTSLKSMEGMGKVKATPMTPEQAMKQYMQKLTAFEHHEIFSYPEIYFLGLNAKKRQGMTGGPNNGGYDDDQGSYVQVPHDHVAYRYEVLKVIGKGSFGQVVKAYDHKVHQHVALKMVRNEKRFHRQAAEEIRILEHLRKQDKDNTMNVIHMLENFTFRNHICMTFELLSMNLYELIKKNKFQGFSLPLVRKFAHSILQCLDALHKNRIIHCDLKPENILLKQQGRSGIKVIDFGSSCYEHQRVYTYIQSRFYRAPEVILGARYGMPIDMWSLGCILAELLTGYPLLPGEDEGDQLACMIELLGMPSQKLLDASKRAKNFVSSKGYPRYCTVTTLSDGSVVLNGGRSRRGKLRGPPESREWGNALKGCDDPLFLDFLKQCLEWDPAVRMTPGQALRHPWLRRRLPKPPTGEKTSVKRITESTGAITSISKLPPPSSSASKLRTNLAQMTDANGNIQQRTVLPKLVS
Sequence of UniProt Q9H4B4 (whole entry, looked up): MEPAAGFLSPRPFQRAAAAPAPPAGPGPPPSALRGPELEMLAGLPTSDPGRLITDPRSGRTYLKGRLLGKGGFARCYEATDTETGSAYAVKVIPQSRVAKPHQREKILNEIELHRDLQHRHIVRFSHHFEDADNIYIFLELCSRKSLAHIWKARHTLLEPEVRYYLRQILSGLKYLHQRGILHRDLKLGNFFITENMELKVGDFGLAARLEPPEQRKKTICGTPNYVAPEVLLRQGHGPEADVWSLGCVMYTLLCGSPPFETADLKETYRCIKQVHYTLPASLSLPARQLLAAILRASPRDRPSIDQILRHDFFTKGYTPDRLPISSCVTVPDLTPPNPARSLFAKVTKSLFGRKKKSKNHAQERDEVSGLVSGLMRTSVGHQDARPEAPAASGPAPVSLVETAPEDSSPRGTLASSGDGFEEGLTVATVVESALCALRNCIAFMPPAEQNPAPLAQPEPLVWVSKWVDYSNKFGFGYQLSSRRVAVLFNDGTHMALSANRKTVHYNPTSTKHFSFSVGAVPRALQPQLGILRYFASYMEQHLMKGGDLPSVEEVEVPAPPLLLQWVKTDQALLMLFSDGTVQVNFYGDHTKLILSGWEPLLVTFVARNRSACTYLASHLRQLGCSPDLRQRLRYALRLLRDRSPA

Block 1
SMILES: CNCc1ccccc1-c1csc([C@@H](C)Nc2nc(C)nc3cc(OC)c(OC)cc23)c1
Effect on: cell-free assay
Technique: competition with immobilised ligand
Tested at: 1 µM
target | remaining binding [%]
Death-associated protein kinase 3 (DAPK3, Homo sapiens, UniProt O43293) | 100
Protein-tyrosine kinase 2-beta (PTK2B, Homo sapiens, UniProt Q14289) | 100
Phosphatidylinositol 4,5-bisphosphate 3-kinase catalytic subunit alpha isoform (PIK3CA, Homo sapiens, UniProt P42336, H1047L) | 95
Phosphatidylinositol 4,5-bisphosphate 3-kinase catalytic subunit alpha isoform (PIK3CA, Homo sapiens, UniProt P42336, I800L) | 85
Serine/threonine-protein kinase TAO1 (TAOK1, Homo sapiens, UniProt Q7L7X3) | 95
Dual specificity tyrosine-phosphorylation-regulated kinase 2 (DYRK2, Homo sapiens, UniProt Q92630) | 92
Interleukin-1 receptor-associated kinase 1 (IRAK1, Homo sapiens, UniProt P51617) | 71
Proto-oncogene tyrosine-protein kinase receptor Ret (RET, Homo sapiens, UniProt P07949, V804M) | 90
Serine/threonine-protein kinase PLK3 (PLK3, Homo sapiens, UniProt Q9H4B4) | 91
Serine/threonine-protein kinase MARK2 (MARK2, Homo sapiens, UniProt Q7KZI7) | 99
Ribosomal protein S6 kinase alpha-1, C-terminal kinase domain (RPS6KA1, Homo sapiens, UniProt Q15418) | 100
Serine/threonine-protein kinase ULK2 (ULK2, Homo sapiens, UniProt Q8IYT8) | 100
Myosin-IIIa (MYO3A, Homo sapiens, UniProt Q8NEV4) | 100
Epidermal growth factor receptor (EGFR, Homo sapiens, UniProt P00533, G719C) | 63
1-phosphatidylinositol 3-phosphate 5-kinase (PIKFYVE, Homo sapiens, UniProt Q9Y2I7) | 100
NUAK family SNF1-like kinase 2 (NUAK2, Homo sapiens, UniProt Q9H093) | 97
Mast/stem cell growth factor receptor Kit (KIT, Homo sapiens, UniProt P10721, V559D) | 100

Block 2
Target: FOSL1, bZIP domain (human)
Technique: DHFR protein complementation
Medium: yeast
Notes: single substitutions, most at no-binding floor
Baseline: wild-type JUN-FOS pair
Direction: higher = stronger binding
Parent: JUN, bZIP domain (human); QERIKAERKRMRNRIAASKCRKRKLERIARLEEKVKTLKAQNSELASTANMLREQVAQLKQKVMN; partner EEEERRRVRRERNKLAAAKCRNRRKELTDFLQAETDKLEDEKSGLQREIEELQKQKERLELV
Variant | binding fitness
K34L | -0.567 natural log
E54C | -0.831 natural log
I28W | -0.61 natural log
V56D | -1.54 natural log
A49Y | -0.894 natural log
R53P | -1.39 natural log
E32K | -0.384 natural log
L31W | -0.819 natural log

Further values, each from its own experiment
Substance | target or system | assay | system | conditions | how to read | endpoint | result
O=C(c1ccc(F)cc1)C1CCN(CCn2c(=O)[nH]c3ccccc3c2=O)CC1 | mouse MPNST tumor cells | high-content immunofluorescence imaging, refers to: nuclear SOX9 |  | 10 µM, 12 h, mean of 2 replicates | baseline: DMSO control, higher = more nuclear SOX9 | nuclear SOX9 intensity | 103 % of DMSO
CC(CC(=O)c1cccs1)NC(=O)C(C)n1cncn1 (stereo not drawn) |  |  | human, microsomes or S9 | 2 µM, 0.5 h |  | remaining compound | 101%
C=CC(=O)N1CCC([C@@H]2CCNc3c(C(N)=O)c(-c4ccc(Oc5ccccc5)cc4)nn32)CC1 | Serine/threonine-protein kinase tousled-like 2 (TLK2, Homo sapiens, UniProt Q86UE8) | enzyme activity, inhibitor |  | 1 µM |  | inhibition | 4%
CN(C)CCCN1c2ccccc2CCc2ccccc21 | UACC-903 melanoma |  |  |  |  | IC50 | 41 µM
CC(C)n1cnc(-c2ccc(F)cc2)c1-c1ncc(C(=O)Nc2ccc(N3CCN(C)CC3)cc2)[nH]1 |  | phase 2a trial | idiopathic pulmonary fibrosis patients | 60 mg once daily, adverse event grade 4 |  | patients with dyspnoea | 0%
PHB1 (Homo sapiens, UniProt P35232) | OCIAD1 (Homo sapiens, UniProt Q9NX40) | cross-linking MS | cell fractions | added: DSSO |  | cross-linked residues | K202 to K195
OCCN1CCN(CCC=C2c3ccccc3Sc3ccc(C(F)(F)F)cc32)CC1 | UACC-903 melanoma |  |  |  |  | IC50 | 7.1 µM
CYC1 (Homo sapiens, UniProt P08574) | UQCRC1 (Homo sapiens, UniProt P31930) | cross-linking MS |  | hits only |  | interaction screen | cross-linked
c1ccc(Oc2ccc(Nc3c4c(nc5ccccc35)CCC4)cc2)cc1 | HEK293 | resazurin |  | 1.66 µM, 10% serum |  | cytotoxicity | 10%
HSP90AB1 (Homo sapiens, UniProt P08238) | MYH9 (Homo sapiens, UniProt P35579) | cross-linking MS | cell fractions | added: DMTMM |  | cross-linked residues | E368 to K202
Cc1onc(-c2ccccc2)c1C(=O)Nc1ccon1 |  |  | human, microsomes or S9 | 2 µM, 0.5 h |  | remaining compound | 74.9%

Excerpt of the above (block 1):
target | remaining binding [%]
Protein-tyrosine kinase 2-beta (PTK2B, Homo sapiens, UniProt Q14289) | 100
Phosphatidylinositol 4,5-bisphosphate 3-kinase catalytic subunit alpha isoform (PIK3CA, Homo sapiens, UniProt P42336, H1047L) | 95
Phosphatidylinositol 4,5-bisphosphate 3-kinase catalytic subunit alpha isoform (PIK3CA, Homo sapiens, UniProt P42336, I800L) | 85
